Measured values gathered from unrelated publications.
Protocols differ between the studies behind these lines. Values joined by “and” are separate records of one study, mostly repeats; a detail may differ. Numbers after ± are the reported error.
Fibroin-modulator-binding protein-1: Fibroin-modulator-binding protein-1 99-193 (Bombyx mori, UniProt Q5FBS0)
allR full length assumed: allR full length assumed (Escherichia coli, UniProt P0ACN4)
Sequence of UniProt P0ACN4 (whole entry, looked up): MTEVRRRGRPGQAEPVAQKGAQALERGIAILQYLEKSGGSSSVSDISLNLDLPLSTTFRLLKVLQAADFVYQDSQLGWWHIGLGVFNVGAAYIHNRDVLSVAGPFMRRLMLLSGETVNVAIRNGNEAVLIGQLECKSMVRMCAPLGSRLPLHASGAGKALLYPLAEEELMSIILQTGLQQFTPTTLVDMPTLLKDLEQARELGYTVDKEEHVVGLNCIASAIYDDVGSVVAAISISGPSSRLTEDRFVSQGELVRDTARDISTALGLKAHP
SPT15/TOA1/TOA2/SUA7 1-240; 1-286; 1-122; 1-345: SPT15/TOA1/TOA2/SUA7 1-240; 1-286; 1-122; 1-345 (Saccharomyces cerevisiae)
RECQL: RECQL 49-616 (Homo sapiens, UniProt P46063)
Sequence of UniProt Q64663 (whole entry, unmodified, looked up): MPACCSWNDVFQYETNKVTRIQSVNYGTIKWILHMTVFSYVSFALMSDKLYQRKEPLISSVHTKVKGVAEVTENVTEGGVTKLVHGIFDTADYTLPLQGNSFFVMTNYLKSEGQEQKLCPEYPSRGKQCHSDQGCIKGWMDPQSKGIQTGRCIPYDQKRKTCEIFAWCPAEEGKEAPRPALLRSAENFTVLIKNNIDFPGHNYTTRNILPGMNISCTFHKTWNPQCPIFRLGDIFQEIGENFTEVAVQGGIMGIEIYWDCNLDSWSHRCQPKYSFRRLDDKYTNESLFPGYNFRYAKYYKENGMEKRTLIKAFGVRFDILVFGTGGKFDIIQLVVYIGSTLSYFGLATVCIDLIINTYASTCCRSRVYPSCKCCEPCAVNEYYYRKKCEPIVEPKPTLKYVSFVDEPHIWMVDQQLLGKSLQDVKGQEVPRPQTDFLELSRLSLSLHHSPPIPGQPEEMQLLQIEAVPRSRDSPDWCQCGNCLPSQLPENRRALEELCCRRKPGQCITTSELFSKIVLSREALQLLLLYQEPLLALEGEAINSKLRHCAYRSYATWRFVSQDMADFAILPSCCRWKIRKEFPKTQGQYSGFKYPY
Sequence of UniProt P46063 (whole entry, looked up): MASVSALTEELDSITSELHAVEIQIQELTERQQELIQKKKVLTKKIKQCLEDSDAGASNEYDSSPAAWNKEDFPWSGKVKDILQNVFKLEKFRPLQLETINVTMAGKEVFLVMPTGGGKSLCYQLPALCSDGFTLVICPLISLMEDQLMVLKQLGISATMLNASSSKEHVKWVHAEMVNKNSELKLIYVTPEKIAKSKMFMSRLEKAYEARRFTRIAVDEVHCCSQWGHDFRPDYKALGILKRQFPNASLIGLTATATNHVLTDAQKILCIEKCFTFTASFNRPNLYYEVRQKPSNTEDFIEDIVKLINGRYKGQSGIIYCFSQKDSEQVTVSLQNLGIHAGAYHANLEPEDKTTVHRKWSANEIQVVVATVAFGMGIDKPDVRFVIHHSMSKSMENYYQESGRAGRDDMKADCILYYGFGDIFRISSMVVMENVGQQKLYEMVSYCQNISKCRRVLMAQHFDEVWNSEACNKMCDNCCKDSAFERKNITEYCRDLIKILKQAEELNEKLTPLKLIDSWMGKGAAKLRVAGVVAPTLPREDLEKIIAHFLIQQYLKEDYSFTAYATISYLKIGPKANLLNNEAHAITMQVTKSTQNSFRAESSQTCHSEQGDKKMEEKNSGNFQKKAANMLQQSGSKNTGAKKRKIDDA
Sequence of UniProt P32787 (whole entry, unmodified, looked up): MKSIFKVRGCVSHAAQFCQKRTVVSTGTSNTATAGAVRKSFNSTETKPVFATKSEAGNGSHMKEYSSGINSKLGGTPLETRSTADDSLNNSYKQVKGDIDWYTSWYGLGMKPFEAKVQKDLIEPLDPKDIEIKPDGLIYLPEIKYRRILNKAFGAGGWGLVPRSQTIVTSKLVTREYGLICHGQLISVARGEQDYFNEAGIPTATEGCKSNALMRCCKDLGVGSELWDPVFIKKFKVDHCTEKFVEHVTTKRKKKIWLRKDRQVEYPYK
Sequence of UniProt Q00059 (whole entry, looked up): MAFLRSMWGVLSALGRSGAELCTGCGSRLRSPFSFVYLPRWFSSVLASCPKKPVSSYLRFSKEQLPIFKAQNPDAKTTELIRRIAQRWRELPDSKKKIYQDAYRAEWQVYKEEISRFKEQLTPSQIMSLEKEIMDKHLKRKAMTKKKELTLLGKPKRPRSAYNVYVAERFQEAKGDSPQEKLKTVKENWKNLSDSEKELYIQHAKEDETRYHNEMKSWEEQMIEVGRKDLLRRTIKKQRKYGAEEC
Sequence of UniProt P19880 (whole entry, looked up): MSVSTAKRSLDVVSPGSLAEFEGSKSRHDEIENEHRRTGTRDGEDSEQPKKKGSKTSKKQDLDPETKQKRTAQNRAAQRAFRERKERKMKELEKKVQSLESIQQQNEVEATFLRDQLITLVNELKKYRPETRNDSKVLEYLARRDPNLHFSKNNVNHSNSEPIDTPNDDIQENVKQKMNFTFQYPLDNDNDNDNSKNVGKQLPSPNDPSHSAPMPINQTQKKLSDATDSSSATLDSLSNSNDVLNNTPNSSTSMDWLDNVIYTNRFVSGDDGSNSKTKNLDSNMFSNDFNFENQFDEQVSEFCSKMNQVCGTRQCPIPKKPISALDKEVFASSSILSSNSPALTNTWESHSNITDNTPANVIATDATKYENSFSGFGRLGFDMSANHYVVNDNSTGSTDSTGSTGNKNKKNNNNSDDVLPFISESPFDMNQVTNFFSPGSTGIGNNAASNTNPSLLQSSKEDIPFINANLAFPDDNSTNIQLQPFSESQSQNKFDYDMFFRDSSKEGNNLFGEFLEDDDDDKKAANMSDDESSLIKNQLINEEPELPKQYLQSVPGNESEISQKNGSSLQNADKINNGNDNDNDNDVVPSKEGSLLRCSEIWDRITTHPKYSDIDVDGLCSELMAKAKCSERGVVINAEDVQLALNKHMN
Sequence of UniProt P11632 (whole entry, looked up): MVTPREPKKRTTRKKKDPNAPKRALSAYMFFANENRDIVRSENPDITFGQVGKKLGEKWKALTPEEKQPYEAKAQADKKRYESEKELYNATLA
Sequence of UniProt P25454 (whole entry, looked up): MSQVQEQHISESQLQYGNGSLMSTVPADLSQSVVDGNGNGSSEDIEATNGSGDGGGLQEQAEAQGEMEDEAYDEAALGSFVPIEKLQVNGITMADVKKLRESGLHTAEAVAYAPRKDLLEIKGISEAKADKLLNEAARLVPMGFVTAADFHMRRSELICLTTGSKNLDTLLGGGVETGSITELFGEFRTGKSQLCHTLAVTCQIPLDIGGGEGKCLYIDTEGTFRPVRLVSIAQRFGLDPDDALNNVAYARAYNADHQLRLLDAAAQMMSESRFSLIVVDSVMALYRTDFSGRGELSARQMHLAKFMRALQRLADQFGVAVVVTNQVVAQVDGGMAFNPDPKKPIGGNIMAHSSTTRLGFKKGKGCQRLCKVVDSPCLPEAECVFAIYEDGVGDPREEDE
Sequence of UniProt Q9Y253 (1-355, looked up): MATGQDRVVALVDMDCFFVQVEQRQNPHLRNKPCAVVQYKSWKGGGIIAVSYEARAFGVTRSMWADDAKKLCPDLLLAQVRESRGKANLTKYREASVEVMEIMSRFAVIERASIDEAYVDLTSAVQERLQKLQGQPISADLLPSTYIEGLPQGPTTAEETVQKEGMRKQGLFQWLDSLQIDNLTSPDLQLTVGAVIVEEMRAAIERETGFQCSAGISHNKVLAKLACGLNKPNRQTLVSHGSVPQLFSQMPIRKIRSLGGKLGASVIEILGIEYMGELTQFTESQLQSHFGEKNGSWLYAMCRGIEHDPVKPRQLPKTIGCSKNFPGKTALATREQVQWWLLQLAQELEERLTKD
Sequence of UniProt Q99383 (whole entry, looked up): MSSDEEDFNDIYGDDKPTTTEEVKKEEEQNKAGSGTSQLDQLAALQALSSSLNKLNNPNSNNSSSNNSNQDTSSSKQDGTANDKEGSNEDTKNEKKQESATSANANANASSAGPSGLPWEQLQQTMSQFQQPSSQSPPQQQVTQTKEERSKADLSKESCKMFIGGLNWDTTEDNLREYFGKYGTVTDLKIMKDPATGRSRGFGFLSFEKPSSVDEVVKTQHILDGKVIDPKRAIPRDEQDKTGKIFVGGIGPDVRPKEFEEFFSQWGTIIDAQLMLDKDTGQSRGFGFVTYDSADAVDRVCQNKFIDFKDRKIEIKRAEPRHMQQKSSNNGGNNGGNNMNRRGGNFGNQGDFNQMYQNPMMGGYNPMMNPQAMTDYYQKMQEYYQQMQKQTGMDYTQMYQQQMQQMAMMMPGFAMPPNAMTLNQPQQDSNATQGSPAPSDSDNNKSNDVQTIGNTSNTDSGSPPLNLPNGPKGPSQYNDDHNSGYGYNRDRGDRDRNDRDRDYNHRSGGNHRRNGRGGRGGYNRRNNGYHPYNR
Sequence of UniProt P42568 (whole entry, looked up): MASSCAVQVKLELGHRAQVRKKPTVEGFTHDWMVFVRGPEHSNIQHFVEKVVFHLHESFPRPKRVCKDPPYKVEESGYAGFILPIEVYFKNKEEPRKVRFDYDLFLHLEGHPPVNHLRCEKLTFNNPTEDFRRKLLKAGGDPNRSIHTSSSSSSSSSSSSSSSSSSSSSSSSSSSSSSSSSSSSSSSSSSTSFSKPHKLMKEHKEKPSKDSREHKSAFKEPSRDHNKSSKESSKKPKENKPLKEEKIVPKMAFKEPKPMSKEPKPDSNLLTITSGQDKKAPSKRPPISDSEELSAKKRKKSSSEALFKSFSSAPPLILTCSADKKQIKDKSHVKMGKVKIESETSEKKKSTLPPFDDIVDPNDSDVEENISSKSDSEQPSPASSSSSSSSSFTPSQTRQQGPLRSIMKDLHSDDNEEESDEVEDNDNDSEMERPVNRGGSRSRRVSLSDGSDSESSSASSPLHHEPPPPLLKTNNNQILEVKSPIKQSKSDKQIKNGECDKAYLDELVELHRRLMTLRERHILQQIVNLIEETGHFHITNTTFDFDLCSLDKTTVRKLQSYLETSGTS

Substance	target or system	assay	test system	setting	scale	quantity	value
UAUAUAUA (ssRNA)	HRP1 1-534 (Saccharomyces cerevisiae, UniProt Q99383)	fluorescence anisotropy	RNA	apparent	–	Kd	0.183 µM
CAGGCAGGCAGG (dsDNA)	Fibroin-modulator-binding protein-1	ITC	double-stranded DNA, one strand shown	–	–	Kd	25.6 µM
TTTTTTTTTTTTTTTTTTTTTTTTTTTTTTTTTTTTTTTTTTTTTTTTTTTTTTTTTTTTTTTTTTTTTT (ssDNA)	RAD51 full length assumed (Saccharomyces cerevisiae, UniProt P25454)	fluorescence anisotropy	single-stranded DNA	apparent, Hill fit, together with: ATP	–	Kd	0.34 ± 0.04 µM
ATTGATTGATTG (dsDNA)	Fibroin-modulator-binding protein-1	ITC	double-stranded DNA, one strand shown	–	–	Kd	1.81 ± 0.282 µM
TAACAGTCACCCCCCNACTAAC / GTTAGTTGGGGGGTGACTGTTA (dsDNA; blunt, THF abasic site)	TFAM 43-246 (Homo sapiens, UniProt Q00059)	fluorescence polarization	–	apparent	–	Kd	0.00071 ± 0.00032 µM
AAAGAAAGAAAGAAAGAAAGAAAGAAAGAAAGAAAGAAAGAAAGAAAGAAAGAAAGAAAG (ssRNA)	CGAS 161-522 K394E (Homo sapiens, UniProt Q8N884)	fluorescence anisotropy	RNA	–	–	Kd	2.29 ± 0.25 µM
TTCTGATCACCGACATGAAAGCTAACAGGAACGTTAAGTGCCTTAGCTCCGGCTACCGTGC (dsDNA)	allR full length assumed	BLI	double-stranded DNA, one strand shown	–	–	Kd	1.96 µM
ATTTATATTATTTATTCATATTTATATTTA (ssDNA)	APOBEC3F full length assumed W126A (Homo sapiens, UniProt Q8IUX4)	EMSA	single-stranded DNA	–	–	Kd	3.93 ± 0.417 µM
TGGCACTCGGGAGGCAGCGGCGACTTTGGGGAAAGTCAAGTCAATCGGTCC (dsDNA; 5'-amino-C6 primer)	SPT15/TOA1/TOA2/SUA7 1-240; 1-286; 1-122; 1-345	array	double-stranded DNA, one strand shown	TBP:TFIIA:TFIIB ternary complex	–	Kd	0.00469 ± 0.00492 µM
BzATP	P2X purinoceptor 7 (P2rx7, Rattus norvegicus, UniProt Q64663, Q143A)	ion current, agonist, two-electrode voltage clamp	Xenopus oocytes	33 µM	–	normalized current	0.88 and 0.974 and 0.976
Peginesatide	UT7/EPO	tyrosine phosphorylation, LC-MS/MS phosphoproteomics, GluC, measured: PIK3R1 tyrosine 607	–	10 nM, 15 min, together with: 10 U/mL EPO	relative to: vehicle	phosphorylation level	2.9 fold
GGGGGCTATAAAAGGGGGTGGGGGCGCGTTCGTCCTCAAGTCAATCGGTCC (dsDNA; 5'-amino-C6 primer)	SPT15/TOA1/TOA2/SUA7 1-240; 1-286; 1-122; 1-345	array	double-stranded DNA, one strand shown	TBP:TFIIA:TFIIB ternary complex	–	Kd	0.0104 ± 0.00728 µM
GUGGUCCCCG (ssRNA)	TARDBP 102-269 (Homo sapiens, UniProt Q13148)	BLI	RNA	–	–	Kd	0.75 ± 0.15 µM
AGTTGGCAAGATGCCAATC (dsDNA)	NFIB full length assumed (Homo sapiens, UniProt O00712)	BLI	double-stranded DNA, one strand shown	together with: Zn2+ 1 mM	–	Kd	0.00156 ± 4e-05 µM
TCACCNTCGTACGACTC / GAGTCGTACGAAGGTGA (dsDNA; blunt, tetrahydrofuran abasic site)	NEIL1 full length assumed K242R (Homo sapiens)	EMSA	–	Hill fit	–	Kd	0.24 ± 0.0167 µM
colistin	Pseudomonas aeruginosa	broth microdilution	clinical isolate RKI-No_1/16	–	–	MIC	1 µg/mL
TTCTACGAGATCGTCATGAC (ssDNA; m6A in GATC)	recA full length assumed (Escherichia coli, UniProt P0A7G6)	BLI	single-stranded DNA	together with: ATPgS	–	Kd	0.94 ± 0.01 µM
DNA 1 GATCGATCGATCGAATTCTCGATCGATCGATCGATTCAATTCAATCGGTCC / DNA 2 GGACCGATTGACTTGAATCGATCGATCGATCGAGAATTCGATCGATCGATC (dsDNA; 5'-amino-C6 primer)	SPT15/TOA1/TOA2/SUA7 1-240; 1-286; 1-122; 1-345	array	double-stranded DNA	TBP:TFIIA:TFIIB ternary complex	–	Kd	0.00246 ± 0.00049 µM
ATGACATGACACGTTACGTT (dsDNA)	NHP6A full length assumed (Saccharomyces cerevisiae, UniProt P11632)	fluorescence anisotropy	double-stranded DNA, one strand shown	together with: Mg2+ 2 mM	–	Kd	0.0102 µM
CATTCGCAACCTATAAGTAAATCCAATGGAACTCATCATAAATGAGACTTTTACCTTATGA (dsDNA)	allR full length assumed	BLI	double-stranded DNA, one strand shown	–	–	Kd	1.37 µM
DNA 1 TGGGTGGGTAGGGTGGGTAGGGGAGGAT / DNA 2 ATCCTCCCCTA (DNA; intramolecular parallel G4, 5' overhang, 11-bp duplex)	REV1 330-833 (Homo sapiens, UniProt Q9UBZ9)	FP	folded DNA	KCl 100 mM	–	Kd	0.0047 ± 0.0006 µM
EKPIDSETKM	human MAGI1-2/6 PDZ construct (MBP fusion)	surface plasmon resonance	peptide	concentration not given	higher = stronger binding	normalised SPR binding response	0 normalised RU

Substance	target or system	assay	test system	setting	scale	quantity	value
DNA 1 CACTGGCCGTCTTACGGTCGCTCTGCTCGACG / DNA 2 CGACCGTAAGACGGCCAGTG (dsDNA; 20 bp, 3' 12 nt overhang)	RECQL 63-592 E328A (Bos taurus, UniProt A0JN36)	fluorescence anisotropy	double-stranded DNA	together with: Mg2+ 3 mM	–	Kd	0.0113 ± 0.0016 µM
UUAUCUU (ssRNA)	MLLT3 1-140 (Homo sapiens, UniProt P42568)	fluorescence polarization	RNA	–	–	Kd	0.048 ± 0.005 µM
GGTAACTTAGCGTCTCGTTGTGATTAAGTTTGACGAGGAATGGAATGCGATGCGCATAACG (dsDNA)	allR full length assumed	BLI	double-stranded DNA, one strand shown	–	–	Kd	1.54 µM
CACCATCCACTAC / ATGTAGTTGTAGTGGATGGTGGTAC (dsDNA; primer-template)	POLH core, residues 1-355 R356X (Homo sapiens, UniProt Q9Y253)	fluorescence polarization	–	together with: MgCl2 5 mM	–	Kd	0.0032 ± 0.0005 µM
TTTTTTTTTTTTTTTTTTTTTTTTTTTTTTTTTTTTTTTTTTTTTTTT (ssDNA)	MGM101 23-269 (Saccharomyces cerevisiae, UniProt P32787)	fluorescence polarization	single-stranded DNA	–	–	Kd	0.48 ± 0.13 µM
GGATCTCGACGCTCTCCCTT (dsDNA)	RECQL	fluorescence anisotropy	double-stranded DNA, one strand shown	Mg2+ 5 mM, together with: ADPNP 2 mM	–	Kd	0.571 ± 0.057 µM
AATTAATTAATT (dsDNA)	Fibroin-modulator-binding protein-1	ITC	double-stranded DNA, one strand shown	–	–	Kd	1.93 ± 0.0856 µM
QGRWDHETIV	human MAGI1-3/6 PDZ construct (MBP fusion)	surface plasmon resonance	peptide	concentration not given	higher = stronger binding	normalised SPR binding response	25.9 normalised RU
TGGATCAATCGTATAAAGAGAATTCCTGGTATGGATCAAGTCAATCGGTCC (dsDNA; 5'-amino-C6 primer)	SPT15/TOA1/TOA2/SUA7 1-240; 1-286; 1-122; 1-345	array	double-stranded DNA, one strand shown	TBP:TFIIA:TFIIB ternary complex	–	Kd	0.00146 ± 0.00019 µM
CCTACCTACCTA (dsDNA)	Fibroin-modulator-binding protein-1	ITC	double-stranded DNA, one strand shown	–	–	Kd	3.48 ± 0.395 µM
11-deoxycorticosterone	CYP11B2 (human)	substrate binding, stopped-flow global kinetic fitting	purified enzyme	3-state conformational selection model, together with: no adrenodoxin	–	rate constant k-1	1.23 ± 0.123 s⁻¹
DNA 1 GGATCTCGACGCTCTCCCTT / DNA 2 GTCGAGATCC (dsDNA; 3' 10-nt overhang, blunt end)	RECQL	fluorescence anisotropy	double-stranded DNA	Mg2+ 5 mM, together with: ADPNP 2 mM	–	Kd	0.073 ± 0.007 µM
CTGCTGGAAACGCCGCGGTCAGCTCGGCTGCTGC (dsDNA)	EWSR1 1-656 (Homo sapiens, UniProt Q01844)	EMSA	double-stranded DNA, one strand shown	–	–	Kd	0.126 ± 0.015 µM
TTCCTGAAGGGGGGCTATAAAAGGGGGTGGGGGCGTCAAGTCAATCGGTCC (dsDNA; 5'-amino-C6 primer)	SPT15/TOA1/TOA2/SUA7 1-240; 1-286; 1-122; 1-345	array	double-stranded DNA, one strand shown	TBP:TFIIA:TFIIB ternary complex	–	Kd	0.00187 ± 0.00035 µM
CGCTTCAATGTTTGAATGTTTTAATTAATTACACAATTACAGAATTACATAATTACTCCGGCGGTATGAC (dsDNA)	YAP1 full length assumed (Saccharomyces cerevisiae, UniProt P19880)	MITOMI	double-stranded DNA, one strand shown	not purified	–	Kd	0.71 ± 0.06 µM
TAAGACACGATGCGATAAAATCTG (dsDNA)	CGAS 1-522 K394E (Homo sapiens, UniProt Q8N884)	fluorescence anisotropy	double-stranded DNA, one strand shown	–	–	Kd	0.194 ± 0.0147 µM
TCCTGAAGGGGCACCTATAAAAGGTCCTATCGTCGTCAAGTCAATCGGTCC (dsDNA; 5'-amino-C6 primer)	SPT15/TOA1/TOA2/SUA7 1-240; 1-286; 1-122; 1-345	array	double-stranded DNA, one strand shown	TBP:TFIIA:TFIIB ternary complex	–	Kd	0.0017 ± 0.00025 µM
GGAAGGAAGGAA (dsDNA)	Fibroin-modulator-binding protein-1	ITC	double-stranded DNA, one strand shown	–	–	Kd	6.96 µM
TAAGACACGATGCGATAAAATCTGTTTGTAAAATTTATTAAGGGTACAAATTGCCCTAGC (dsDNA)	CGAS 161-522 K394E (Homo sapiens, UniProt Q8N884)	fluorescence anisotropy	double-stranded DNA, one strand shown	–	–	Kd	0.51 ± 0.027 µM
TTGATAAGAGGTCATTTTTGCGGATGGCTTAGAGCTTAATTGCTGAATCTGGTGCTGTAGCTCAACATGTTTTAAATATGCAA (ssDNA)	MGM101 23-269 R215A (Saccharomyces cerevisiae, UniProt P32787)	fluorescence polarization	single-stranded DNA	–	–	Kd	0.99 ± 0.16 µM
CGCGCGCGCGCG (dsDNA)	Fibroin-modulator-binding protein-1	ITC	double-stranded DNA, one strand shown	–	–	Kd	3.41 ± 0.627 µM

For quick reference, copied from above:
Substance	target or system	assay	test system	setting	scale	quantity	value
TGGCACTCGGGAGGCAGCGGCGACTTTGGGGAAAGTCAAGTCAATCGGTCC (dsDNA; 5'-amino-C6 primer)	SPT15/TOA1/TOA2/SUA7 1-240; 1-286; 1-122; 1-345	array	double-stranded DNA, one strand shown	TBP:TFIIA:TFIIB ternary complex	–	Kd	0.00469 ± 0.00492 µM
BzATP	P2X purinoceptor 7 (P2rx7, Rattus norvegicus, UniProt Q64663, Q143A)	ion current, agonist, two-electrode voltage clamp	Xenopus oocytes	33 µM	–	normalized current	0.88 and 0.974 and 0.976
Peginesatide	UT7/EPO	tyrosine phosphorylation, LC-MS/MS phosphoproteomics, GluC, measured: PIK3R1 tyrosine 607	–	10 nM, 15 min, together with: 10 U/mL EPO	relative to: vehicle	phosphorylation level	2.9 fold
